Experimental data of several laboratories.
Numbered parts are unrelated; each lists some results of a single study.

Set 1
Cell line: HEK-293T/ACE2
Tested at: 10 µM
Time: 16 h
Baseline: vehicle
With `CC(=O)c1ccc(S(=O)(=O)NC(=O)NC2CCCCC2)cc1` the viability was 101%.
`CCn1cc(C(=O)O)c(=O)c2cc(F)c(N3CCNC(C)C3)c(F)c21` (stereo not drawn) gave a viability of 103%.
With `Cc1cccc(Nc2ccccc2C(=O)O)c1C` the viability was 101%.
For `CN(C)CCCN1c2ccccc2Sc2ccccc21`, the viability was 101%.
For `O=C(O[C@H]1C[C@H]2CC[C@@H](C1)[N+]21CCCC1)C(O)(c1ccccc1)c1ccccc1`, the viability was 98.4%.
The viability of `COc1ccc2nc(SCc3ncc(C)c(OC)c3C)[nH]c2c1` is reported as 105%.

Set 2
Target: Replicase polyprotein 1ab, main protease (rep, Severe acute respiratory syndrome coronavirus 2, UniProt P0DTD1)
Effect on: enzyme activity
Mode: inhibitor
Tested at: 20 µM
For `CO/N=C(\C(=O)N[C@@H]1C(=O)N2C(C(=O)O)=C(CSC(=O)c3ccco3)CS[C@H]12)c1csc(N)n1`, the inhibition was -4.24%.
For `COCCCOc1ccnc(C[S+]([O-])c2nc3ccccc3[nH]2)c1C` (stereo not drawn), the inhibition was -10.5%.
`CCCOc1ccc(CSc2nnc[nH]2)cc1` gave an inhibition of 32.8%.
With `Cc1ccccc1N(C)C(=O)c1ccc([S+]([O-])c2nccs2)c([N+](=O)[O-])c1` (stereo not drawn) the inhibition was 73.8%.

Set 3
Target: RNA binding protein fox-1 homolog 2, RRM domain, GST-SBP tag (RBFOX2, Homo sapiens, UniProt O43251-10, residues 100-194)
Method: RNA Bind-n-Seq
Form: RNA
Medium: in vitro
Tested at: 365 nM
Notes: natural RNA segment, single round, ends assumed
Baseline: no-protein control
Reading: higher = stronger binding
Constant ends, left off below: GGGAGUUCUACAGUCCGACGAUC … UGGAAUUCUCGGGUGCCAA
Target sequence (chain): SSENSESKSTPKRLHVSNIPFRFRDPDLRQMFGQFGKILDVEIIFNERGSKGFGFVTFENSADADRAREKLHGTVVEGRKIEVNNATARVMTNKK
`UGAGAUACCGGUUACUUCCCUGGUCCUGAGAGUCACCUGUGGUCACCCCUCUUCCCAGGCCUGACUUCUGAGUAGGACCCUGGGUCAGGGCUAAGUGUUGAAUUUACCCU`: “RBNS enrichment (R)” 0.294.
For `AAAAACCUCUAUUUAGAUUUCAAUAAUCAGAGAAGUGUAAAAUAAAACAGAUUAUAUUGUACUUGACCUUUAUGUCUUUAAAGAUAGUUAAUGCAACCCUGAGGCUUGGG`, “RBNS enrichment (R)” read 0.468.
For `UUUACAAGCUUUAUAAUUUUAUGAUUUUUUAAUCGUGUUUUGUCACAGACUUCCCUAGUGUUUGUACUACACGUAGUCAGAAGCGAGUGUCCUUUUCUUUUGCUUCAGGC`, “RBNS enrichment (R)” read 0.577.
`GUUUGACGGACUGUUCCAAUCUGCCUUAUGAAAUCCAACAAGAAUGUUAGUGGCAUCUCUGUGGUCCCUAGGCAGGCAGGAGGUAUGGGGAGGUGCUGUUGGCGUGGAGG`: “RBNS enrichment (R)” 2.02.
`GAUUUAGGUGGAAGAGCAGCCAUGUUUGAAGGGCACAUGUGAUGAGUGGGGGGCAGCAAGAUGCCAUUUCUGCAUCUCCCAGAAGGGAUGAGUCUUUGUCCCGAUGCAAG`: “RBNS enrichment (R)” 2.1.
`UUCCUAAAAUAGACAGUGGGUAUCGGGCAGCAGUCACUGGGGCUCAAGGGCAGUGAGCAAGAGAAAUGUCUAAAGCUGCUUCUCCCAACACCGUCCAAAGUCUCCACUGC`: “RBNS enrichment (R)” 0.335.
For `UUUGCACAAUGUCUUUGGUUGCAAGUCAUAAGCCUGAGGCAAAUAAAAUUCCAGUAAUUUCGAAGAAUGUGGUGUUGGUGCUUUCCUAAUAAAGAAAUAAUUUAGCUUGA`, “RBNS enrichment (R)” read 5.66.
Under “RBNS enrichment (R)”, `CCUCGCCCUCCAAACCAAGCAUUGAGGGUAACCCUCAGAACCCAUUCUCCUAUCUCCUAAAGUGUCGGGGAAAGUUACUGGCCUCUCUCAACAGGGCUCACUCUGAGCUC` is recorded as 0.305.

Set 4
Target: Replicase polyprotein 1ab, polymerase (rep, Severe acute respiratory syndrome coronavirus 2, UniProt P0DTD1)
Effect on: enzyme activity
Mode: inhibitor
Tested at: 20 µM
The inhibition of `O=C(OCCN1CCOCC1)C1(c2ccccc2)CCCCC1` is reported as 0.65%.
`COCc1nnc(N2CC(Oc3ccc(F)cc3Cl)C2)n1-c1ccc(OC)nc1` has an inhibition of -4.29%.
The inhibition of `CC(C)c1nc(CN(C)C(=O)N[C@H](C(=O)N[C@@H](Cc2ccccc2)C[C@H](O)[C@H](Cc2ccccc2)NC(=O)OCc2cncs2)C(C)C)cs1` is reported as 3.55%.
For `COc1ccc2c(c1)N(C[C@H](C)CN(C)C)c1ccccc1S2`, the inhibition was -1.09%.
`O=C(NCc1ccncc1)C12CC3CC(C1)CC(c1ccc(Cl)cc1)(C3)C2` has an inhibition of -3.31%.
With `O=C(O)C1=CCCN(CCON=C(c2ccccc2)c2ccccc2)C1` the inhibition was -3.28%.
`Cn1cc(C[C@@H](N)C(=O)O)c2ccccc21` gave an inhibition of -2.74%.
`COC(=O)C[C@](O)(CCCC(C)(C)O)C(=O)O[C@@H]1C(OC)=C[C@]23CCCN2CCc2cc4c(cc2[C@H]13)OCO4` gave an inhibition of -2.2%.
`Cc1onc(-c2ccccc2Cl)c1C(=O)N[C@@H]1C(=O)N2[C@@H]1SC(C)(C)[C@@H]2C(=O)O` has an inhibition of 1.85%.
The inhibition of `NC(=O)C(c1ccccc1)(c1ccccc1)[C@@H]1CCN(CCc2ccc3c(c2)CCO3)C1` is reported as -7.38%.
The inhibition of `O=C(CCNNC(=O)c1ccncc1)NCc1ccccc1` is reported as -4.01%.
With `CCOC(=O)OC(C)OC(=O)[C@@H]1N2C(=O)[C@@H](NC(=O)[C@H](N)c3ccccc3)[C@H]2SC1(C)C` (stereo partly drawn) the inhibition was -2.47%.
With `O=C(C(c1ccccc1)c1ccccc1)N1CCN(CC(O)COc2cccc3ncccc23)CC1` (stereo not drawn) the inhibition was -3.89%.
For `CCc1nn(CCCN2CCN(c3cccc(Cl)c3)CC2)c(=O)n1CCOc1ccccc1`, the inhibition was -0.87%.
With `COC(=O)C1=C(C)NC(C)=C(C(=O)O[C@H]2CCN(Cc3ccccc3)C2)[C@H]1c1cccc([N+](=O)[O-])c1` the inhibition was 0.86%.

Repeated from above (set 1):
`CCn1cc(C(=O)O)c(=O)c2cc(F)c(N3CCNC(C)C3)c(F)c21` (stereo not drawn) gave a viability of 103%.
With `Cc1cccc(Nc2ccccc2C(=O)O)c1C` the viability was 101%.
For `CN(C)CCCN1c2ccccc2Sc2ccccc21`, the viability was 101%.
For `O=C(O[C@H]1C[C@H]2CC[C@@H](C1)[N+]21CCCC1)C(O)(c1ccccc1)c1ccccc1`, the viability was 98.4%.
The viability of `COc1ccc2nc(SCc3ncc(C)c(OC)c3C)[nH]c2c1` is reported as 105%.
